Results from different studies.
Each line is one published result; not all experiments were run side by side. In brackets after ≈: the same amount, converted by molar mass.
Sequence of UniProt P36897 (whole entry, looked up): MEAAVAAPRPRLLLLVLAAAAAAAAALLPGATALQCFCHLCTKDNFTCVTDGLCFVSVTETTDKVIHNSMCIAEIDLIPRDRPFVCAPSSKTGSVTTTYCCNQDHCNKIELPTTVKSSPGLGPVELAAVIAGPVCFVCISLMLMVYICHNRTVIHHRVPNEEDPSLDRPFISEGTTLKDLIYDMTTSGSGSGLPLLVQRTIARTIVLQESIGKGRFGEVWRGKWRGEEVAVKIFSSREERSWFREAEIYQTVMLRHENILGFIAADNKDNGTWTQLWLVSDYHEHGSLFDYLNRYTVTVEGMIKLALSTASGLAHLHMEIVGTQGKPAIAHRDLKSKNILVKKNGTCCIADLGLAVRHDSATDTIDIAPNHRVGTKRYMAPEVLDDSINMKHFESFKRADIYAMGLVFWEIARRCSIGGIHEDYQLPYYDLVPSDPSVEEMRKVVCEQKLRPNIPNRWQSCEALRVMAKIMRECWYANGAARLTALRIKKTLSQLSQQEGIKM
Sequence of UniProt Q96PY6 (whole entry, looked up): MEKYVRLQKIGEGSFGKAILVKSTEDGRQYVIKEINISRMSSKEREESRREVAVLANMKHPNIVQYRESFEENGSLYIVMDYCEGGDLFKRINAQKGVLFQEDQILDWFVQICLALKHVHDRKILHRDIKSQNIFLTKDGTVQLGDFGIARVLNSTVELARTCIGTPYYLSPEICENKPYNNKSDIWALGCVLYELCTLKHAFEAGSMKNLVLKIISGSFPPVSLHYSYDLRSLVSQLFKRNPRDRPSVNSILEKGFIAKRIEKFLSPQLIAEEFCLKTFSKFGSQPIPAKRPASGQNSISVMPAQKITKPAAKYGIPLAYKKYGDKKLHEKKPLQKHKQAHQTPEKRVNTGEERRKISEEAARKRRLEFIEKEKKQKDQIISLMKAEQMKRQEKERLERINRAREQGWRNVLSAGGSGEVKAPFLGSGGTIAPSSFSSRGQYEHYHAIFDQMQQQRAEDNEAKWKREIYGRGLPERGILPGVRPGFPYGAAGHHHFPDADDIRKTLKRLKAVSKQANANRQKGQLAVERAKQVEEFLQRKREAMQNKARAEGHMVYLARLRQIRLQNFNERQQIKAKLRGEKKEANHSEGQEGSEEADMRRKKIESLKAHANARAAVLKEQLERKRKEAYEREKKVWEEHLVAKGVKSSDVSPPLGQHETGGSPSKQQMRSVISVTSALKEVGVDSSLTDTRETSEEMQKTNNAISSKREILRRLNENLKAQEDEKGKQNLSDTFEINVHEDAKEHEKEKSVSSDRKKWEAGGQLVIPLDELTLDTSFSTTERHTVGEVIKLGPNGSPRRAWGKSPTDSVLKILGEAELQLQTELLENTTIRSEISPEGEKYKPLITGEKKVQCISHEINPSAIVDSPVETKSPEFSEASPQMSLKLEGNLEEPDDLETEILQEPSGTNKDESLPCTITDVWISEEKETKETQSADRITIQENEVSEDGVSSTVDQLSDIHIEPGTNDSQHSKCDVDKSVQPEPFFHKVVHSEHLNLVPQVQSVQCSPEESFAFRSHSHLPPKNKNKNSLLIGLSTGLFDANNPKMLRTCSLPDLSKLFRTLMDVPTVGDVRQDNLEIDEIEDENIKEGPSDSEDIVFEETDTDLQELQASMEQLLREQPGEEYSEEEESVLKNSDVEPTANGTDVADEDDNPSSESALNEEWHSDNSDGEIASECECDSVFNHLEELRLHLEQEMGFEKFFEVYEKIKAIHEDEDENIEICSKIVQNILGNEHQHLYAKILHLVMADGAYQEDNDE
Sequence of UniProt O33336 (whole entry, looked up): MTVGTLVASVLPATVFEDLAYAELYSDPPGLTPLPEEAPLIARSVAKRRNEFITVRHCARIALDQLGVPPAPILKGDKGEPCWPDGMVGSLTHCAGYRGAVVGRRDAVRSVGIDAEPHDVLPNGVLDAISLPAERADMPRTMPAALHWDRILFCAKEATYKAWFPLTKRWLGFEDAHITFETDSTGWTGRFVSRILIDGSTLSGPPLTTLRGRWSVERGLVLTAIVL
Sequence of UniProt Q13546 (whole entry, looked up): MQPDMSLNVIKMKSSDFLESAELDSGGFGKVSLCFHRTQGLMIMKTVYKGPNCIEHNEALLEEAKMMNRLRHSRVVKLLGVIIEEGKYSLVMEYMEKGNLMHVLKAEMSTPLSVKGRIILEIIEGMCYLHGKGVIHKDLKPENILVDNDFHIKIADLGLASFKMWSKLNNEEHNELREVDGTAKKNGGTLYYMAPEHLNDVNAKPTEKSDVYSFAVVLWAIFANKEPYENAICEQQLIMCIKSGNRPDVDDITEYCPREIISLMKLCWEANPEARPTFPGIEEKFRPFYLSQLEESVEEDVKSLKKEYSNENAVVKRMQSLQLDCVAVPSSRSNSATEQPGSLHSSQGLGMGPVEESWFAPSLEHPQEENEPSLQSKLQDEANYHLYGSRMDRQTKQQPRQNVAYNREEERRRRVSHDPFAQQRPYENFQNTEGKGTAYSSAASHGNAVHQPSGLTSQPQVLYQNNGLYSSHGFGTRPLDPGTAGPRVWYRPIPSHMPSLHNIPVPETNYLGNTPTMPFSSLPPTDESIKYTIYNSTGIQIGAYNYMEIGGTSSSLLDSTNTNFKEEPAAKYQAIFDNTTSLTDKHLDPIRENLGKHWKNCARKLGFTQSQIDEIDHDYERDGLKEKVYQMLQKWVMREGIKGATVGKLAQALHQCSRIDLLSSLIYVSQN

N=c1c2c(-c3ccccc3)c(-c3ccccc3)n(Cc3ccccc3)c2ncn1[C@H]1CC[C@H](O)CC1 has a scaled CLint of 9 mL/min/kg (metabolic stability; minipig, hepatocytes; 1 µM).
For CC[C@H](C)[C@@H]1NC(=O)CNC(=O)[C@@H](CC(C)C)NC(=O)[C@@H](C(C)C)NC(=O)[C@H]2CCCN2C(=O)[C@@H](CC(C)C)NC(=O)[C@H](Cc2ccccc2)NC(=O)[C@@H]2CCCN2C(=O)[C@H](CC(C)C)NC(=O)[C@H](CO)NC(=O)CNC(=O)[C@H]([C@@H](C)O)NC1=O, the thermodynamic solubility was 698 µM (≈ 834 µg/mL) (aqueous buffer; 18 h, pH 7.4).
With Nc1ncc(-c2nc(N3CCOCC3)nc(N3CCOCC3)n2)c(C(F)F)n1 the remaining binding was 91% (Receptor-interacting serine/threonine-protein kinase 1 (RIPK1, Homo sapiens, UniProt Q13546); binding, competition with immobilised ligand; 10 µM).
[2H]c1c([2H])c([C@]2([2H])CCCN2C(=O)C(C)(C)Oc2ccc3cn[nH]c3c2)c([2H])c([2H])c1C([2H])([2H])[2H] gave a remaining binding of 93% (Serine/threonine-protein kinase Nek1 (NEK1, Homo sapiens, UniProt Q96PY6); binding, competition with immobilised ligand; 1 µM).
For CN(C)C(=O)OCc1cc2[nH]c(=S)n(Cc3cncnc3)c(=O)c2cc1Cl, the IC50 was 15.6 µM (4'-phosphopantetheinyl transferase PptT (Mycobacterium tuberculosis, UniProt O33336); enzyme activity, inhibitor, FP).
The remaining binding of Cc1nn(C)cc1-c1nc2c(N3CCN(Cc4ccc(Cl)cc4)CC3)c(Cl)cnc2[nH]1 is reported as 83% (TGF-beta receptor type-1 (TGFBR1, Homo sapiens, UniProt P36897); binding, competition with immobilised ligand; 1 µM).
For CC(C)C[C@H](NC(=O)[C@H](Cc1ccccc1)NC(=O)[C@H](Cc1ccccc1)NC(=O)Cc1ccc(-c2ccccc2)cc1)C(=O)N[C@@H](CCCCN)C(=O)N[C@@H](CCCNC(=N)N)C(=O)N[C@H](C(=O)N[C@@H](Cc1c[nH]c2ccccc12)C(=O)N[C@@H](CCCCN)C(=O)N[C@@H](CCCNC(=N)N)C(=O)O)C(C)C, the compound remaining was 7.6% (metabolic stability; monkey, liver microsomes; 1 h).
CC(C)(N)CNC(=O)O[C@H]1CCC[C@@]2(C1)OOC1(O2)C2CC3CC(C2)CC1C3 (stereo partly drawn) gave a half-life of 72.6 min (male CD-1 mouse, plasma; intravenous, 3 mg/kg).
With Cc1ccccc1C(=O)NN=Cc1ccc(O)c(Br)c1 the bioavailability was 100% (mouse, plasma; intraperitoneal, 1.6 mg/kg).
With CC[C@H](C)[C@H]1C(=O)N[C@@H](Cc2ccccc2)C(=O)N[C@H](C(=O)O)CSCC(=O)N[C@H](Cc2ccc(O)cc2)C(=O)NCC(=O)N[C@@H](CC(C)C)C(=O)N2CCC[C@H]2C(=O)N[C@@H](CC(C)C)C(=O)N[C@@H](CC(C)C)C(=O)N[C@@H](C)C(=O)N[C@@H](C)C(=O)N1C the solubility was 758 µM (≈ 936 µg/mL) (aqueous buffer; pH 7.4).
COc1ncccc1-c1cnn2ccc(N3CCN(C(=O)OC(C)C)CC3)nc12 has a remaining binding of 100% (Serine/threonine-protein kinase mTOR (MTOR, Homo sapiens, UniProt P42345); binding, competition with immobilised ligand; 1 µM).
For CCCCCCCCCCCCCCCC(=O)NCCO, the LD50 was > 2000 mg/kg (mouse; oral, 2000 mg/kg, single dose).
CCCC[C@@H]1NC(=O)[C@H](Cc2ccc(O)cc2)NC(=O)[C@@H]2CCCN2C(=O)[C@H](CC(=O)O)NC(=O)[C@H](C)NC(=O)[C@H](Cc2ccccc2)NC(=O)[C@@H]2CSCCC(=O)N3CN(CN(C3)C(=O)CCSC[C@H](NC(C)=O)C(=O)N[C@@H](CC(C)(C)C)C(=O)N[C@@H](CCC(=O)O)C(=O)N[C@@H](CCC(=O)O)C(=O)N[C@H](CCCCNC(=O)CCc3cn(CCOCCOCCOCCN(CCOCCOCCOCCC(=O)N[C@H]4CSCCC(=O)N5CN6CN(C5)C(=O)CCSC[C@H](NC(=O)[C@@H](CC(=O)O)NC(=O)[C@H](Cc5cccc7ccccc57)NC(=O)[C@@H]5CCCN5C4=O)C(=O)N[C@@H](CCSC)C(=O)N[C@@H](CCCCNC(=N)N)C(=O)N[C@@H](CC(=O)O)C(=O)N[C@@H](Cc4c[nH]c5ccccc45)C(=O)N[C@@H](CO)C(=O)N[C@@H]([C@@H](C)O)C(=O)N4CCC[C@H]4C(=O)N4C[C@H](O)C[C@H]4C(=O)N[C@@H](Cc4c[nH]c5ccccc45)C(=O)N[C@H](C(N)=O)CSCCC6=O)CCOCCOCCOCCn4cc(CCC(=O)NCCCC[C@H]5NC(=O)[C@H](CCC(=O)O)NC(=O)[C@H](CCC(=O)O)NC(=O)[C@H](CC(C)(C)C)NC(=O)[C@@H](NC(C)=O)CSCCC(=O)N6CN7CN(C6)C(=O)CCSC[C@H](NC(=O)[C@H](Cc6ccc(O)cc6)NC(=O)[C@@H]6CCCN6C5=O)C(=O)N[C@@H](Cc5ccccc5)C(=O)N[C@@H](C)C(=O)N[C@@H](CC(=O)O)C(=O)N5CCC[C@H]5C(=O)N[C@@H](Cc5ccc(O)cc5)C(=O)N[C@@H](CCCC)C(=O)N[C@H](C(N)=O)CSCCC7=O)nn4)nn3)C(=O)N3CCC[C@H]3C(=O)N[C@@H](Cc3ccc(O)cc3)C(=O)N2)C(=O)CCSC[C@@H](C(N)=O)NC1=O gave a Vd of 1.2 L/kg (rat, plasma; intravenous, 2 mg/kg).
The bioavailability of C[C@]12CC[C@H](n3ccnc3)CC1=CC[C@@H]1[C@@H]2CC[C@]2(C)C(n3cnc4ccccc43)=CC[C@@H]12.Cl.Cl is reported as > 100% (male CD-1 mouse, plasma; oral, 10 mg/kg).
The half-life of CN1CCN(S(=O)(=O)c2cc([N+](=O)[O-])ccc2N(CCOS(C)(=O)=O)CCOS(C)(=O)=O)CC1 is reported as 7.2 min (female SCID mouse, plasma; intraperitoneal, 5 mg/kg).
